Measured values gathered from unrelated publications.
Each numbered part is a random draw from the data of one study; scales do not carry over between parts. Positions count from the first letter of the parent shown.

Block 1 — technique: protein-binding microarray; molecule type: double-stranded DNA, one strand shown; sample: in vitro; tested at: 250 nM; notes: 60-bp whole probe; added: salmon DNA 0.4 mg/ml; baseline: random background probes; reading: higher = stronger binding; shared flanks, not repeated: GCCTAGCAC … GTCTTGATTCGCTTGACGCTGCTG
Target: Interferon regulatory factor 7, full length, phosphomimetic (IRF7, Homo sapiens, UniProt Q92985, residues 1-503, S101K/S471D/S472D/S475D/S476D/S477D/S483D/S484D/S487D)
Target sequence (chain): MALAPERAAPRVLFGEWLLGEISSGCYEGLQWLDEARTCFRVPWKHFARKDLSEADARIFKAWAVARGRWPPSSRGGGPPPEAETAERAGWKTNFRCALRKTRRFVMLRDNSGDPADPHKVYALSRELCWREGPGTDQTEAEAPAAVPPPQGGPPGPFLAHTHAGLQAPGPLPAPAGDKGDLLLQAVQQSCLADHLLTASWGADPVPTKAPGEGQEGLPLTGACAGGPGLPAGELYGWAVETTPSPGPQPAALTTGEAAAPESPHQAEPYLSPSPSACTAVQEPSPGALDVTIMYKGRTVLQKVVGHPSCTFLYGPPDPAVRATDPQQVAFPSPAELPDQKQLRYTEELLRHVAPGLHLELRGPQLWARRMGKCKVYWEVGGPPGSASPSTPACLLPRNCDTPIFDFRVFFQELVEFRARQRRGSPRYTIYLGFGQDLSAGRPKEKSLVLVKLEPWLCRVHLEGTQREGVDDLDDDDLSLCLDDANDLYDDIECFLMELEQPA
Sequence	log fluorescence [z-score]
ATAGATATCGGGTTTCGATTAGTGCTA	7
TTAGATATCAGTATCGACTAGTGCTAG	0.048
TTCGGTCTCCTTCTCCTTTAGTGCTAG	0.645
GACGGTATCGACTATCGAGACGTGCTA	0.076
AACGGACTGCTACTGCTGACGTGCTAG	-0.689
TTAGATATCGGTATCGGTTAGTGCTAG	1.44
TAAGGACTGGGACTGGGTTAGTGCTAG	-0.0278
TCTTTTTCCTAATTGAACCCGTGCTAG	3.51
TTAGGTCTCCTTTTCCGTTAGTGCTAG	1.78
ACAGCCTTTCTAACTTGAAAGTGCTAG	-0.137
GACGTACTGCTACTGCTGACGTGCTAG	-0.338
GACGGCCTCGGACTGGGGACGTGCTAG	-0.151
TTAGTTATCCTTATCCTTTAGTGCTAG	0.693
GACGAACTGAGTTTCGGGACGTGCTAG	2.53
TTAGGTATCGGGTGTCGGTTAGTGCTA	-0.0258
TTGGGTTTCGGACTGGGTTAGTGCTAG	3.09
TTAGGTTTCCTTCTCCCTTAGTGCTAG	2.33
TTAGATTTCGGGTTTCGAATAGTGCTA	4.76
TTGGGTCTCGGTCTCGGTTAGTGCTAG	2.11

Block 2 — technique: RNA Bind-n-Seq; molecule type: RNA; sample: in vitro; tested at: 365 nM; baseline: no-protein control; reading: higher = stronger binding
Target: RNA binding protein fox-1 homolog 2, RRM domain, GST-SBP tag (RBFOX2, Homo sapiens, UniProt O43251-10, residues 100-194)
Notes: natural RNA segment, single round, ends assumed
Shared flanks, not repeated: GGGAGUUCUACAGUCCGACGAUC … UGGAAUUCUCGGGUGCCAA
Construct (chain): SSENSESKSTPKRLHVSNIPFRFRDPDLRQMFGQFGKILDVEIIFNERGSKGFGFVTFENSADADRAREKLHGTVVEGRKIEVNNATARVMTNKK
Sequence	RBNS enrichment (R)
UGGGCCCUGGCUCCAUUAACCUAAAUGUAGCUCCUUAGCGCUAAUCUAGGAACCGCCGCUGCCUGCUGAGGGCCAGGCCCCUCACGCCCUCGCCCCAGGCCCGGGUCCUC	0.488
AUCUGUCUGUGUGGCUUGUUCUGUGGGCCUGAACUCCUAAGCACAGGUCGGGGGUAAAACUAGGAUGCUAGUAGGUGUUGUCUAUAGAGAGGCGCUGAGGAAGUGAGCUG	1.21
ACACAUUUGCAUAUACCCACAUGGGGACAUAAGCUAAUUUUUUUACAGGACACAGAAUUCUGUUCAAUGCUGUUAAAUAUGCCAAUAGUUUAAUCUCUUCUAUUUUGUUG	0.624
UCCCUGCCAGCCAACCCCCACCACUCUAAGAGAAAUUUUAGCUUAUAUAUGACGGUAUAUUUGCAAAAAGAGAAAGAAAAAUCUGGUAUUUGCAAUGAUCUGUGCCUUCU	1.12
AUAGGGACAACCUCCUUGCUGGCCAACACCUGCUGGAGCAGGGGCACAGGUCCCAGCAACUGAUCCUCAGUGGAUGGGUCUGCAGCCAAAGCCUUAAUGGGCUCUCUUUU	0.255
CCUGGACAGGCAGUCUAGGGGGUAUGGGAAUACACGGUGUGGUUGUUCAACUAUUUGCAAAGGUCAACCAAAUAGACCACAUGUUCGCAAAGUAUCAUCUGAGGAAAUUA	0.281
UUGCUAGGGGUGAAAGCAUUACAGAGAGAUGGAGCCAUCUAUCCAAGAAGCCUUCACUCACCUUCACUGCUGCUGUUGCAACUCGGCUGUUCUGGACUCUGAUGUGUGUG	0.945
AGCUGAUGUGAAUCCAUCCAGGGCCUAGGUAGAUUGGUAAGUCAGGAAACAGCCCAUGGGGUUCAGCUCUGCAUCCUCCUCUUUAAGUGAAUUAAAGUGGUUUUCCCAGA	0.301

Block 3 — target: CCNB2, cyclin fold, Cln2 fusion (human); technique: yeast growth competition, sequencing; sample: yeast; notes: weak parent motif; baseline: not given; reading: higher = stronger binding
Starting sequence: HIRA docking peptide (human); SLSKRKLELEVET; partner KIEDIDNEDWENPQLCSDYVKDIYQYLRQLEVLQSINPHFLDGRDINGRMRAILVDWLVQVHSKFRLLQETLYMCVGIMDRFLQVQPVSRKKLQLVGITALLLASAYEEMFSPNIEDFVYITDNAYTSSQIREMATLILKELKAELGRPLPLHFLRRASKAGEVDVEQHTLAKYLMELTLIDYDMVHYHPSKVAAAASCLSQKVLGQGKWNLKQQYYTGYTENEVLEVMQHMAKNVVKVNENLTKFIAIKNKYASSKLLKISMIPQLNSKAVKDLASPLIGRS
Change	normalised enrichment score
SLSKKKLEFEVET [R5K L9F]	-0.251
SASKRKLELEVET [L2A]	-0.159
SLSKRKLELEVEA [T13A]	-0.0941
SLSKRKLEAEVET [L9A]	0.0858
SLSKRKLELEAET [V11A]	-0.425
SLSKAKLELEVET [R5A]	-0.627
SLAKRKLELEVET [S3A]	-0.308

Block 4 — target: CRIPT, C-terminal peptide; technique: DHFR complementation, deep sequencing; sample: yeast; baseline: wild type; reading: higher = weaker binding
Notes: single substitutions, model-inferred values
Starting sequence: ERBIN, PDZ domain 1 (human); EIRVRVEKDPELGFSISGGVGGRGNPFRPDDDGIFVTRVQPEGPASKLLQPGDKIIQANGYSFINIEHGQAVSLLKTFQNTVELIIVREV; partner TKNYKQTSV
Change	binding free energy change
V6L	0.116 kcal/mol
Q57T	-0.064 kcal/mol
V90E	-0.0973 kcal/mol
G69H	0.108 kcal/mol
R5C	0.0644 kcal/mol
Q50T	0.09 kcal/mol
D31H	0.61 kcal/mol
V39W	0.546 kcal/mol
D30Q	0.339 kcal/mol
Q40I	0.233 kcal/mol
R5P	0.186 kcal/mol
D31R	1.16 kcal/mol
N80K	0.0805 kcal/mol
G21D	-1.15 kcal/mol
E7L	0.0466 kcal/mol
P29T	0.0274 kcal/mol

Single results of other studies
Substance	target	assay	test system	setting	scale	endpoint	value
PhoQ, residues 284 288 289 292 302 303 NLALSC	PhoP, residues 12 14 15 18 19 HLGGL (Escherichia coli, UniProt P23836)	Sort-seq, refers to: YFP reporter	E. coli	PhoQ-PhoP variant library, added: 10 µM Mg2+	baseline: high Mg2+ state, higher = stronger signaling	fold induction	1.14

Repeated from above (block 1):
Sequence	log fluorescence [z-score]
GACGGTATCGACTATCGAGACGTGCTA	0.076
ATAGATATCGGGTTTCGATTAGTGCTA	7
GACGTACTGCTACTGCTGACGTGCTAG	-0.338
TTGGGTCTCGGTCTCGGTTAGTGCTAG	2.11
GACGAACTGAGTTTCGGGACGTGCTAG	2.53
AACGGACTGCTACTGCTGACGTGCTAG	-0.689
TTAGGTTTCCTTCTCCCTTAGTGCTAG	2.33
